Assay results pooled from the literature.
A part holds a random share of what one study measured.

Sample 1
Target: RNA binding protein fox-1 homolog 2, RRM domain, GST-SBP tag (RBFOX2, Homo sapiens, UniProt O43251-10, residues 100-194)
Technique: RNA Bind-n-Seq
Form: RNA
Medium: in vitro
Tested at: 365 nM
Setting: natural RNA segment, single round, ends assumed
Relative to: no-protein control
Direction: higher = stronger binding
Constant ends, left off below: GGGAGUUCUACAGUCCGACGAUC … UGGAAUUCUCGGGUGCCAA
Sequence	RBNS enrichment (R)
GUUGCUGAUAGCCAGGAAAGAGAGCUUUCGGCCAGGGGAGCAGAGUGGAGACUCCCAUCUUUGGGGAAGCAUAUAUGCUCAAGCGCCUCUACAAAGACAUUCCCUGGCAG	0.387
CUAAGGUCUUGUGCCAGCAUCUACCCACACCUGGUUCUGUUCACUGUGGUCUGCCCACACCUGUCUACUCUGGCAUGUGUCAGGAAAAGGAGCGUCAAAGGUGACCUUUA	1.92
AGUUCUGGAACAUCUGAAUACAACAGACCCCAACAGUACUUGCCGCUGUGUCCAGAUGUUGGAAUGGUUUGAGCAUCAUGGUCACAUUUGCAUUGUUUUUGAACUAUUGG	3.39
CACCAGAAGCUGCCGUAGAAAGCCAUGCGCUACUGCUUACCUCCUCCACUCCCCCUGCCUGCCCCCAGCAUCUGGACAAGCUAAUAGCAAAUAUUACCCAUUGCUAUCAA	3.71
GCACCCCGCUCAAGUCUCCCACCCCUGGUGGACCUCUGACUCUGUUGCUUUUCUUUAAGUAAAGAUUACAUCUAUCUGGGUCGUGGUUUCUCUUUUGGUGGCAAACUUUU	0.365
UACUUAUGUAUGGAAGAUUACUGCUCUGAGUGAAAUAAAAGUUAUUAGUGCGAGGCAAACAUAACUCAUUUGAGGAUAAAGUUUGUGUUGGAUAUGUGGUUCCUGAUGCA	12.4
AGCGAUCAGAGUAUGUCUUGUGUGUGAGAGUGAGCCUUACAAUCAUGUCCACUGAAGCCACUGGCAGUGGCUCCCAACCCCCAUCCCAUUAGAAGGGACUUGGCCUGCCC	0.379
CCCGUGUGGCUUUAUCCUGUCCCUGCUGUUGCGAGGAAGCUGUGAGGGUACCUUCAGAUGAGAUACCUGCUUGUAUUUUAAGAGAAACAAGUAGCCAAAGAAACUCUGUC	0.575

Sample 2
Target: Prothrombin, mature alpha-thrombin (F2, Homo sapiens, UniProt P00734)
Technique: aptamer microarray, sandwich
Form: DNA with 2'F-ANA
Medium: in vitro
Tested at: 200 nM
Setting: whole 15-mer aptamer, many near background
Together with: Cy3 exosite-II aptamer, 400 nM
Direction: higher = stronger binding
Sequence: GGTTGGTGTGGTTGG
Modification	mean fluorescence intensity
2'F-ANA at 1 3 4 9 11 13 15	127 a.u.
2'F-ANA at 1 3 10 11	74.6 a.u.
2'F-ANA at 1 2 3 5 8 14	127 a.u.
2'F-ANA at 1 2 3 4 6 9 10 13 15	58.2 a.u.
2'F-ANA at 2 3 5 6 8 10 11 12 13 14 15	53 a.u.
2'F-ANA at 2 4 7 8 9 10 12 13	140 a.u.
2'F-ANA at 3 6 7 8 9 10 14 15	353 a.u.
2'F-ANA at 2 4 7 9	385 a.u.
2'F-ANA at 6 7 9 11 12 14	178 a.u.
2'F-ANA at 1 2 4 7 10 13 14 15	49.7 a.u.
2'F-ANA at 4 5 6 9 11 12 13 14	48.2 a.u.
2'F-ANA at 1 3 4 5 6 7 9	64.1 a.u.
2'F-ANA at 1 2 3 5 7 8 10 12 13 14	69.3 a.u.
2'F-ANA at 1 3 4 5 6 10 13 14	48.5 a.u.
2'F-ANA at 1 4 5 9 10 14	43.9 a.u.
2'F-ANA at 4 5 6 7 8 10 11 13 14 15	56.7 a.u.
2'F-ANA at 1 2 3 4 5 7 9 10 11 13	68.3 a.u.
2'F-ANA at 5 6 7 9 10 11 12 14 15	49.2 a.u.
2'F-ANA at 2 5 8 9 15	78.5 a.u.
2'F-ANA at 1 2 3 4 6 10 13 14	49.8 a.u.
2'F-ANA at 3 6 7 8 9 13 14 15	520 a.u.
2'F-ANA at 1 2 3 8 9 11 15	237 a.u.
2'F-ANA at 1 4 9 11 15	103 a.u.
2'F-ANA at 1 2 3 4 5 6 7 8 9 10 11 12 15	58.6 a.u.

Sample 3
Target: RING finger protein unkempt homolog, zinc fingers 1-6, GST-SBP tag (UNK, Homo sapiens, UniProt Q9C0B0, residues 30-357)
UniProt Q9C0B0, sequence (30-357, looked up): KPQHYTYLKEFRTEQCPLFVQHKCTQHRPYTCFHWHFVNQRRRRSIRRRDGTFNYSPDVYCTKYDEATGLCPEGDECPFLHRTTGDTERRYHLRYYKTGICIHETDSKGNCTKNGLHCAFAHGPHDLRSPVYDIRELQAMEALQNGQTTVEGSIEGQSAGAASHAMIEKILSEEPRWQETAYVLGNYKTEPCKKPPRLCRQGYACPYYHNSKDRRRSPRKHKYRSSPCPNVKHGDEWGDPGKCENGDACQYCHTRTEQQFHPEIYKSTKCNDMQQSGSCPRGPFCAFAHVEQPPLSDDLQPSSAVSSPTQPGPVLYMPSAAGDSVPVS
Technique: RNA Bind-n-Seq
Form: RNA
Medium: in vitro
Tested at: not given
Setting: RNA with constant flanks, human-mouse chimeric sites, ends assumed
Relative to: input RNA pool
Direction: higher = stronger binding
Constant ends, left off below: GGGAGUUCUACAGUCCGACGAUC … CAACAGAGGAUUGAGCAUCA
Sequence	bound/input enrichment
CUCGGCACCGGCACGCUUUACAUCGCGGAGAGCCGCCUGUCUUGGUUAGAUGGUUCGGGAUUAGGAUUCUCACUGGAAUACCCCACCAUUAGUUUACAUGCGGUGUCCAGGGAUCCAAAC	0.407 ratio
ACCAUUUUCGCGGUUCAGGCUUUGUGUUGUAUUUACUUACGGUAUUAAAUUAUUAUUCUGCUUAGCUUAUAAUAAGGAUAAUUGCAUGAUUUAAGUAUACUGAAUGUUACUCUGAAACUU	0.266 ratio
UGUGCAUAUGAUGCUUGGAGAUGGUUUUGCAAAAGCAGACAUCGCUGCAAGGUAAUCACAAUAGAUAAAAGUGGUAUUUUAAACCUUUGAAAUAAAUGGAUGUAACUGUACCUUGGUACA	0.661 ratio
UGUAGUUUCUUGAUUUAUCAUUUUUCUCUUUUCUUUCUUUCCUUUAGGAAAAGCCUAAAGAUUAGGUUGUAAGAAAAGAAAAUAGAAUGUUUCGAAGACCUGUGUUACAGGUAUUUCGUC	0.475 ratio
AAAGUGGACUAUGGCGAGUACAUGGAUAAAAAUAAUGUGAGGCGGCAAGCAACAACAAUCAUAGCUGAUAACAUUAUAUUUCUGAGUGACCAGACAAAAGAAAAGGCGUAGAAAGGAUGA	1.5 ratio
GUGACUGGUGUUAAGAUUUCCCCUCAGCAAAGAAGUGUAGCAGUGACAAUAAUCCCUUCUGUGGUGAGUGCCAGUCAGAUUGUGGAGCUGGUCCCAGACCUCAGUUUAGACAUGGGAACU	0.307 ratio
GGUGGGGUGGUCAUUGCCGUUUGAGCUGCUGAUUUUCUUAUGAAUCAUUCAAAACUCUCGUGUAGGGUUGACAAUGUGGGGGGGUGGGGGAUCCAGCUUAUUCUUUUUCCCCAGCCCCCA	0.486 ratio
UCGGAUGCUGUGCUGGGUCACUUUCCGUAUCCUGAUCCUUCACAGUGGACAGAUGAAGAACUGGGAAUCCCUCCUGAUGACGAGGACUGACACUGUAAACUCUCUGGACGAGUAGGAGCA	0.717 ratio

Sample 4
Target: Max-binding protein MNT, bHLH-zipper, MAX partner unstated (MNT, Homo sapiens, UniProt Q99583, residues 220-300)
Technique: protein-binding microarray
Form: double-stranded DNA, one strand shown
Medium: in vitro
Tested at: not given
Setting: k-mer, scored over probes, only values ≥0.25
Direction: higher = stronger binding
Target sequence (chain): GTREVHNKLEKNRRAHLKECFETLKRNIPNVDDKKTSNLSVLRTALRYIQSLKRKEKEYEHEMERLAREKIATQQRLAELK
Sequence	E-score
ACACATGA	0.359
GCACGCAC	0.329
CTCATGTC	0.331
CACATGTA	0.467
CACGGGAG	0.284
GCACGCTA	0.372
ATGCGGCA	0.348
AGGTGCAT	0.29
CCCGTGGC	0.269
GACCACGA	0.331
CGTGCGTC	0.41
AGGCCACG	0.318
ACGTGCAT	0.454
CACGCGCG	0.422
ACGGGTGG	0.306
CACCATGA	0.252

For quick reference, copied from above (sample 1):
Sequence	RBNS enrichment (R)
CUAAGGUCUUGUGCCAGCAUCUACCCACACCUGGUUCUGUUCACUGUGGUCUGCCCACACCUGUCUACUCUGGCAUGUGUCAGGAAAAGGAGCGUCAAAGGUGACCUUUA	1.92
AGUUCUGGAACAUCUGAAUACAACAGACCCCAACAGUACUUGCCGCUGUGUCCAGAUGUUGGAAUGGUUUGAGCAUCAUGGUCACAUUUGCAUUGUUUUUGAACUAUUGG	3.39
GUUGCUGAUAGCCAGGAAAGAGAGCUUUCGGCCAGGGGAGCAGAGUGGAGACUCCCAUCUUUGGGGAAGCAUAUAUGCUCAAGCGCCUCUACAAAGACAUUCCCUGGCAG	0.387
